{"data": "Measurements pooled from the literature", "note": "Lines come from different studies, so protocols differ. Several values in a cell are separate wells, animals, samples, runs or records. ± gives the spread as reported.", "UniProt Q9ULW8, sequence (whole entry, looked up)": "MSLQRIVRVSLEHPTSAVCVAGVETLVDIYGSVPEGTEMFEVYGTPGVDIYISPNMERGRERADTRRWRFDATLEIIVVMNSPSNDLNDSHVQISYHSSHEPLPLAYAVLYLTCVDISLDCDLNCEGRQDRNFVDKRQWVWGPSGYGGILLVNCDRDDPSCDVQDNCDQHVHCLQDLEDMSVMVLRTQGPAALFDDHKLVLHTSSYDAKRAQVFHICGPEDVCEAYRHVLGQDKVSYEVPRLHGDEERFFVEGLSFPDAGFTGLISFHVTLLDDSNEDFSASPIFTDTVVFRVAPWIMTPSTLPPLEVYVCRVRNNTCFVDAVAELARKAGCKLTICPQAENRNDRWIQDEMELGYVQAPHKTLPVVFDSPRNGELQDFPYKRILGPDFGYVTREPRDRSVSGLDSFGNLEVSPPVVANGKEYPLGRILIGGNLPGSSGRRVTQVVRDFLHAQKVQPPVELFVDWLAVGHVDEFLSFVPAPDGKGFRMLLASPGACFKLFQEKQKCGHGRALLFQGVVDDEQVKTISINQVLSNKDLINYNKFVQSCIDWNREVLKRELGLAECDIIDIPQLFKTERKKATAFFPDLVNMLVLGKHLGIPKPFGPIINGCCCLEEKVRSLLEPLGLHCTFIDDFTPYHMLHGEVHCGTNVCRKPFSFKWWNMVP", "UniProt P21554, sequence (whole entry, unmodified, looked up)": "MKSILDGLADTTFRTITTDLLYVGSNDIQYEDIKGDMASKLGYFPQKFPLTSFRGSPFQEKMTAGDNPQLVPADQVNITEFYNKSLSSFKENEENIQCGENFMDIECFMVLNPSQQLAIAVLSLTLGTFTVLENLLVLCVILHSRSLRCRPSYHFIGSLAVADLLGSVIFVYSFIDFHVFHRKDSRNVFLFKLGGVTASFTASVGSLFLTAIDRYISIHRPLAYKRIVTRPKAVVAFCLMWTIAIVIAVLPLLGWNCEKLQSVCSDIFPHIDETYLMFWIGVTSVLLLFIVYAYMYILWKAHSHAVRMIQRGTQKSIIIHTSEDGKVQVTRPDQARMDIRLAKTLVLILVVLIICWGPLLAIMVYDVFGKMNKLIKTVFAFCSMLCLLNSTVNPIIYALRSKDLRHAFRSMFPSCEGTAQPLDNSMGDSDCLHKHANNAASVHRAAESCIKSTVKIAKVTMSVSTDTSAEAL", "UniProt P53355, sequence (whole entry, looked up)": "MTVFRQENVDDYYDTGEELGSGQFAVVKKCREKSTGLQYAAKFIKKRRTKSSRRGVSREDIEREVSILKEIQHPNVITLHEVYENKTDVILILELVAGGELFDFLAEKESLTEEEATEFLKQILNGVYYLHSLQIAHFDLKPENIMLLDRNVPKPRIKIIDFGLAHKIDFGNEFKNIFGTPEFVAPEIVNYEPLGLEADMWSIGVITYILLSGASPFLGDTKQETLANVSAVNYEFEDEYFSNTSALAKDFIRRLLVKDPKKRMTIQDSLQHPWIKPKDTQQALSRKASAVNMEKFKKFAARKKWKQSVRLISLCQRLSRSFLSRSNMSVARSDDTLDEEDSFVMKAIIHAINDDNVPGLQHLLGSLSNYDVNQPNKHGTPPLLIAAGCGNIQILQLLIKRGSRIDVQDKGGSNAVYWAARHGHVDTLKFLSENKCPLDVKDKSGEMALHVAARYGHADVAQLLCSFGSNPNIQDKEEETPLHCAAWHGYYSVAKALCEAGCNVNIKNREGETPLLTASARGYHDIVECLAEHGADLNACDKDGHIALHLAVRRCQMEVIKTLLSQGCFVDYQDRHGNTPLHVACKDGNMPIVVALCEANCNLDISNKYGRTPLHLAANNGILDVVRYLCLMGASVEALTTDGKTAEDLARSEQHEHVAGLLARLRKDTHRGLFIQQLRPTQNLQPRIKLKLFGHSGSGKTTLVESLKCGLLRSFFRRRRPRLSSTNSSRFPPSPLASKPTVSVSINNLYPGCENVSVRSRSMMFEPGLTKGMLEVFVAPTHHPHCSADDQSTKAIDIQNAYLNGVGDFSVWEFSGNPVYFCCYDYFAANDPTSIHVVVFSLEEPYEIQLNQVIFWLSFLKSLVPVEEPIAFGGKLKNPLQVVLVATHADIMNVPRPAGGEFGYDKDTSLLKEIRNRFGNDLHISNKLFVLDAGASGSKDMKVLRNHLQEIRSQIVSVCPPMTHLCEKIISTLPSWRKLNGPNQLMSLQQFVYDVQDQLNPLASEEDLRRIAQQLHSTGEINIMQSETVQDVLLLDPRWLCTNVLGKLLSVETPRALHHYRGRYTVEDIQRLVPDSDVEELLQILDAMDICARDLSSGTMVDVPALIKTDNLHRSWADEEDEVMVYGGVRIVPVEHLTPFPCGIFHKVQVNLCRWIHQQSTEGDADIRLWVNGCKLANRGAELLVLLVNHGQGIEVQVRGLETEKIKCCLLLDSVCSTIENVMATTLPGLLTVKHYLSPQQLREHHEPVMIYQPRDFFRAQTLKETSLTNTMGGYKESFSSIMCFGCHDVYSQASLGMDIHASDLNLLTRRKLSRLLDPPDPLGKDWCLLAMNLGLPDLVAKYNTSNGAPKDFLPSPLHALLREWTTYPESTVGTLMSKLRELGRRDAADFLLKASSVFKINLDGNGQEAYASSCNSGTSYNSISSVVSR", "UniProt P54764, sequence (whole entry, looked up)": "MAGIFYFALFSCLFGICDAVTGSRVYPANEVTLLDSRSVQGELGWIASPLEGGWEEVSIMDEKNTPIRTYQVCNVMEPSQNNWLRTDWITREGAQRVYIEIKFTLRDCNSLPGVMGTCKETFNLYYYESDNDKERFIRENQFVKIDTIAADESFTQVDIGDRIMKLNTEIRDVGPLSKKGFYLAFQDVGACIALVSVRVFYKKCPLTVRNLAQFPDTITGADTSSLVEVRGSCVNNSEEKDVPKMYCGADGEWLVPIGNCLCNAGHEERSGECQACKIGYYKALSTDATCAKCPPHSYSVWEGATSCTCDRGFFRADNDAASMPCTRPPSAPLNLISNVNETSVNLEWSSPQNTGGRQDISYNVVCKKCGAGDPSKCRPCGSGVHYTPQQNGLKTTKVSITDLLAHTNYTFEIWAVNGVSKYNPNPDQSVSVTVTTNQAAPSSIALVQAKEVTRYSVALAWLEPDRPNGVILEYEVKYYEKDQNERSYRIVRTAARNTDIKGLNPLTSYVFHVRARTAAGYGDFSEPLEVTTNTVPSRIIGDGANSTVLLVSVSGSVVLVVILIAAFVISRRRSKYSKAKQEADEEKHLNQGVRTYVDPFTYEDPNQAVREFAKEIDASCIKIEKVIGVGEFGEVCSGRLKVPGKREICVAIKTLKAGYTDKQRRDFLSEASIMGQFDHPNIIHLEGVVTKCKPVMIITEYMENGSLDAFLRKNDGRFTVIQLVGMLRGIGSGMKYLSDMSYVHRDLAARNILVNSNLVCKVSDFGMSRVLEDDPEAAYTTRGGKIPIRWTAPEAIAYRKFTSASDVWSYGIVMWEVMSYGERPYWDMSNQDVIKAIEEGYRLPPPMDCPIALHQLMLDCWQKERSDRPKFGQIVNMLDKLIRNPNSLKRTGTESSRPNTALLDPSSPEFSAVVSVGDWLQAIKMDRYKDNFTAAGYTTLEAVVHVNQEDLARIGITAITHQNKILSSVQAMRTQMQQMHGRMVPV", "UniProt P04049, sequence (whole entry, looked up)": "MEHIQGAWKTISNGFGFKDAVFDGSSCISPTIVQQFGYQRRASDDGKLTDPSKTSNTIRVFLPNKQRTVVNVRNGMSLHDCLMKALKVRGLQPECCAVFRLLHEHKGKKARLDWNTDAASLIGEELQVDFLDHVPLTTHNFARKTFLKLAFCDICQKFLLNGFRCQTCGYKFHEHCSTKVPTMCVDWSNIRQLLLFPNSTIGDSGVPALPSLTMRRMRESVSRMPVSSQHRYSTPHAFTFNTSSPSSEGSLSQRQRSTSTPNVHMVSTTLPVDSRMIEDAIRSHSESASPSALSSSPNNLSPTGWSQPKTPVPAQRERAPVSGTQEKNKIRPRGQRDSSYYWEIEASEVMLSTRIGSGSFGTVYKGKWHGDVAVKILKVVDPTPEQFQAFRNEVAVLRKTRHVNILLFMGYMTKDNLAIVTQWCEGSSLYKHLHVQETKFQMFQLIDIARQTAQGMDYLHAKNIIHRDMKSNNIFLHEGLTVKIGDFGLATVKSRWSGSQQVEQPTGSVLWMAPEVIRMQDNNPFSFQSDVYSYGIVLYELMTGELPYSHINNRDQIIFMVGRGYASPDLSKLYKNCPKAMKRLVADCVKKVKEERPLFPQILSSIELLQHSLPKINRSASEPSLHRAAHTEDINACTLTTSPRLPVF", "UniProt Q91ZH7, sequence (whole entry, looked up)": "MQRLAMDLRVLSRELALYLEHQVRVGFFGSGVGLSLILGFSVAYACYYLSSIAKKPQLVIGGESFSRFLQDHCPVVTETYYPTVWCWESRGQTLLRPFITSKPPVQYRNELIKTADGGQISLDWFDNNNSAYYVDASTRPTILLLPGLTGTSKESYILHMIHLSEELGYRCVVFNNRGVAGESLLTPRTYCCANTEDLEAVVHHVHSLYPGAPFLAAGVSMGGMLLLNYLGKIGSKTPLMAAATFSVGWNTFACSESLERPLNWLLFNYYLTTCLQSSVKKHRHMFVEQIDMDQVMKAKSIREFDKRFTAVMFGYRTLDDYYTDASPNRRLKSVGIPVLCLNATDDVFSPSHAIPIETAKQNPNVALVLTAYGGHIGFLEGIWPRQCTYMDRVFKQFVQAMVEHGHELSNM"}
{"Compound": "N[C@H](C(=O)N1CCCC1)C1CCN(c2nccc3c(-c4ncc(Cl)cc4Cl)cccc23)CC1", "target": "PADI3 (Homo sapiens, UniProt Q9ULW8)", "assay": "enzyme activity", "setting": "0.0983 µM, with: Ca2+ 0.25 mM", "measurement": "kcat", "result": "0.0538 s⁻¹ and 0.0623 s⁻¹"}
{"Compound": "CC(C)CC(O)(CC(C)C)c1cn(C(=O)N2CCCC2)nn1", "target": "Phospholipase ABHD3 (Abhd3, Mus musculus, UniProt Q91ZH7)", "assay": "probe labelling, inhibitor, item: Abhd3", "test system": "mouse, brain", "setting": "i.p., 0.8 mg/kg, 4 h, protein level", "how to read": "reference: treated over vehicle mice, lower = stronger inhibition", "measurement": "activity ratio-of-ratios", "result": 0.6}
{"Compound": "CN(C)[C@H]1C[C@@]23CC[C@@]4(O2)C(=CC[C@]2(C)[C@@H](c5ccc6ccncc6c5)CC[C@H]24)C=C3[C@@H](O)[C@@H]1O", "target": "TLK2 (Homo sapiens, UniProt Q86UE8)", "assay": "ATP probe labelling, inhibitor, KiNativ profiling", "setting": "0.1 µM", "measurement": "inhibition", "result": "-2.4%"}
{"Compound": "O=C1NC(=O)c2c1c1cc(F)c[n+]3c1c1c2c2cc(O)ccc2[n]1[Ru-4]312([N]=C=S)[S+]3CC[S+]1CC[S+]2CC3 (stereo not drawn)", "target": "PRKCI (Homo sapiens, UniProt P41743)", "assay": "enzyme activity", "setting": "100 nM, human enzyme, with: 10 µM ATP", "how to read": "reference: untreated", "measurement": "remaining activity", "result": "87%"}
{"Compound": "CC[C@H](C)[C@@H]1NC(=O)CNC(=O)[C@@H]2Cc3c([nH]c4cc(O)ccc34)[S@+]([O-])C[C@H](NC(=O)CNC1=O)C(=O)N[C@@H](CC(N)=O)C(=O)N1C[C@H](O)C[C@H]1C(=O)N[C@@H]([C@@H](C)[C@@H](O)CO)C(=O)N2", "target": "DNA-directed RNA polymerase II subunit RPB1 (Homo sapiens, UniProt P24928)", "test system": "HeLa nuclear extract", "setting": "100 nM, 60 min", "measurement": "transcription activity", "result": "9 ± 4%"}
{"Compound": "Nc1ccc(/C=C/C(=O)N2CCc3c(oc4c(-c5ccc(F)cc5)cc(-c5ccc(C(=O)N6CCC(F)(F)CC6)cn5)cc34)C2)cn1", "target": "RAF1 (Homo sapiens, UniProt P04049)", "assay": "binding, competition with immobilised ligand", "setting": "1 µM", "measurement": "remaining binding", "result": "94%"}
{"Compound": "Cc1ccc2c(C(C[N+](=O)[O-])c3cccs3)c(-c3ccccc3)[nH]c2c1 (stereo not drawn)", "target": "CNR1 (Homo sapiens, UniProt P21554, L387A)", "assay": "Gαi1-γ2 dissociation, BRET", "measurement": "Emax", "result": "99.1 ± 5.27%"}
{"Compound": "CC(C)[C@H]1NC(=O)C[C@H]2/C=C/CCSSC[C@@H](NC1=O)C(=O)N[C@H](Cc1cccc3ccccc13)C(=O)NCC(=O)O2", "target": "EPHA4 (Homo sapiens, UniProt P54764)", "assay": "enzyme activity, inhibitor", "setting": "10 µM", "measurement": "inhibition", "result": "1.4%"}
{"Compound": "CS(C)(=O)=Nc1ccc(-c2ccc(-c3nc4cc(O[C@@H]5CO[C@H]6[C@@H]5OC[C@H]6O)[nH]c4cc3F)cc2)cc1", "target": "DAPK1 (Homo sapiens, UniProt P53355)", "assay": "enzyme activity, inhibitor", "setting": "10 µM", "measurement": "inhibition", "result": "5%"}
